{"data": "Experimental data gathered from unrelated publications", "note": "Compare with care: the assays were run in different laboratories."}
{"Structure (SMILES)": "O=[N+]([O-])c1ccc(-n2nc(-c3ccc(F)cc3)cc2-c2ccc(F)cc2)c([N+](=O)[O-])c1", "organism": "Japanese encephalitis virus", "assay": "viral replication, refers to: viral RNA", "system": "SA14-14-2, mice, spleen", "conditions": "ip, 100 mg/kg/day, 120 h", "inhibition": "70.5%"}
{"Structure (SMILES)": "CC(C)CC(C(=O)N1CC2(CC1C#N)C(=O)Nc1ccccc12)N(C)C(=O)c1cc2c(F)cc(F)c(F)c2[nH]1 (stereo not drawn)", "organism": "pangolin coronavirus", "assay": "viral replication", "conditions": "0.1111 µM", "inhibition": "100%"}
{"Structure (SMILES)": "COC(=O)c1cc2c(=O)n3ccccc3nc2n1Cc1ccccc1", "organism": "Severe acute respiratory syndrome coronavirus 2", "assay": "viral replication", "system": "Vero", "conditions": "10 µM", "inhibition": "65.8%"}
{"Structure (SMILES)": "Cc1ccc(N2CC3CC(C2)N3)cc1C(=O)NC1(c2ccc3c4c(cccc24)C(=O)N3C)CC1", "organism": "SARS-CoV-2", "assay": "viral replication", "system": "Vero C1008, wild type", "conditions": "12.5 µM", "inhibition": "100%"}
{"Structure (SMILES)": "O=S(=O)(O)c1c2ccccc2c(-c2c3nc(c(-c4c5ccccc5c(S(=O)(=O)O)c5ccccc45)c4ccc([nH]4)c(-c4c5ccccc5c(S(=O)(=O)O)c5ccccc45)c4nc(c(-c5c6ccccc6c(S(=O)(=O)O)c6ccccc56)c5ccc2[nH]5)C=C4)C=C3)c2ccccc12", "organism": "Orthopoxvirus vaccinia", "assay": "viral replication", "conditions": "25 µg/mL, 24 h", "inhibition": "81%"}
{"Structure (SMILES)": "CC(C)C1=CC2=C(C=O)C[C@@H]3[C@](C)(CCC[C@@]3(C)C(=O)OCC#CCN3CCOCC3)[C@H]2CC1", "organism": "SARS-CoV-2 pseudovirus", "assay": "pseudovirus infection", "system": "BHK-21-hACE2", "conditions": "20.0 µM", "inhibition": "48.1%"}
{"Structure (SMILES)": "Cc1ccc(N2CC3CC(C2)N3C)cc1C(=O)NC1(c2ccc3c4c(cccc24)C(=O)N3C)CC1", "organism": "SARS-CoV-2", "assay": "viral replication", "system": "Vero C1008, Omicron BA.5", "conditions": "12.5 µM, 72 h", "inhibition": "100%"}
{"Structure (SMILES)": "CCN(CC)CC#CCOC(=O)[C@]1(C)CCC[C@]2(C)[C@H]3C[C@H]4C(C(C)C)=C[C@]3(CC[C@H]21)[C@@H]1C(=O)CCC(=O)[C@@H]14", "organism": "SARS-CoV-2 pseudovirus", "assay": "pseudovirus infection", "system": "BHK-21-hACE2", "conditions": "20.0 µM", "inhibition": "42.2%"}
{"Structure (SMILES)": "Cc1oc2nc1C(=O)N[C@](C)(C(=O)NCCc1ccccc1)c1nc(c(C)o1)C(=O)N[C@](C)(C(=O)NCCc1ccccc1)c1nc(c(C)o1)C(=O)N[C@]2(C)C(=O)NCCc1ccccc1", "organism": "SARS-CoV-2", "assay": "viral adsorption", "system": "Vero E6, NRC-03-nhCoV", "conditions": "20 µM", "inhibition": "11%"}
{"Structure (SMILES)": "O=C(C=Cc1ccc(O)c(O)c1)OC1CC(O)(C(=O)O)CC(OC(=O)C=Cc2ccc(O)c(O)c2)C1O (stereo not drawn)", "organism": "Severe acute respiratory syndrome coronavirus 2", "assay": "cytopathic effect, inhibitor", "system": "Vero C1008", "conditions": "25 µM", "inhibition": "0%"}
{"Structure (SMILES)": "Cc1ccc(N2CC(N3CCC(C)(O)CC3)C2)cc1C(=O)NC1(c2ccc3c4c(cccc24)C(=O)N3C)CC1", "organism": "SARS-CoV-2", "assay": "viral replication", "system": "Vero C1008, Omicron BA.5", "conditions": "12.5 µM", "inhibition": "100%"}
{"Structure (SMILES)": "CC(C)C1=C[C@@]23CC[C@@H]4[C@](C)(CCC[C@@]4(C)C(=O)OCC#CCN4CCOCC4)[C@H]2C[C@@H]1[C@H]1C(=O)OC(=O)[C@H]13", "organism": "SARS-CoV-2 pseudovirus", "assay": "pseudovirus infection", "system": "BHK-21-hACE2", "conditions": "20.0 µM", "inhibition": "34.8%"}
{"Structure (SMILES)": "N=C(N)NCc1cn([C@@H]2[C@@H](OCCn3cc(-c4cc(OCCOCCO)c(C#Cc5cc(OCCOCCO)c(C#Cc6cc(OCCOCCO)c(-c7cn(CCO[C@H]8O[C@H](CO)[C@@H](O)[C@H](O)[C@@H]8n8cc(CNC(=N)N)nn8)nn7)cc6OCCOCCO)cc5OCCOCCO)cc4OCCOCCO)nn3)O[C@H](CO)[C@@H](O)[C@@H]2O)nn1.O=CO.O=CO", "organism": "rVSV-luc pseudotyped with SARS-CoV-2 S", "assay": "L-SIGN-mediated trans-infection", "system": "Jurkat expressing L-SIGN", "conditions": "5 µM", "inhibition": "98.5%"}
{"Structure (SMILES)": "COC(=O)c1c(C)[nH]c2c3c(c(O)c(CN4CCOCC4)c12)[C@H]1C[C@@H]2[C@@]4(C)CCC[C@@](C)(C(=O)OC)[C@@H]4CC[C@@]32C=C1C(C)C", "organism": "SARS-CoV-2 pseudovirus", "assay": "pseudovirus infection", "system": "BHK-21-hACE2", "conditions": "20.0 µM", "inhibition": "31.7%"}
{"Structure (SMILES)": "Cc1ccc(N2CC(N3CCC(C)(O)CC3)C2)cc1C(=O)NC1(c2ccc3c4c(cccc24)CC3)CC1", "organism": "SARS-CoV-2", "assay": "viral replication", "system": "Vero C1008, XBB.1", "conditions": "12.5 µM", "inhibition": "100%"}
{"Structure (SMILES)": "CCN(CC)CC#CCOC(=O)[C@]1(C)CCC[C@]2(C)[C@H]3C[C@H]4C(C(C)C)=C[C@]3(CC[C@H]21)[C@@H]1C(=O)OC(=O)[C@@H]14", "organism": "SARS-CoV-2 pseudovirus", "assay": "pseudovirus infection", "system": "BHK-21-hACE2", "conditions": "20.0 µM", "inhibition": "38.9%"}
{"Structure (SMILES)": "COc1c(/C=C/C(=O)c2ccc(O)cc2)ccc(O)c1O", "organism": "SFTSV", "assay": "IL-1β secretion", "system": "THP-1 macrophages", "conditions": "10 µM, 48 h", "inhibition": "> 90%"}
{"Structure (SMILES)": "COC(=O)[C@]1(C)CCC[C@]2(C)[C@H]3C[C@H]4C(C(C)C)=C[C@]3(CC[C@H]21)[C@H]1[C@@H]4[C@@H](OCC#CCN2CCCC2)CC[C@@H]1O", "organism": "SARS-CoV-2 pseudovirus", "assay": "pseudovirus infection", "system": "BHK-21-hACE2", "conditions": "20.0 µM", "inhibition": "50.7%"}
{"Structure (SMILES)": "Cc1ccc(N2CCN(C)CC2)cc1C(=O)NC1(c2ccc3c4c(cccc24)CC3)CC1", "organism": "SARS-CoV-2", "assay": "viral replication", "system": "Vero C1008, wild type", "conditions": "0.05144 µM", "inhibition": "0%"}
{"Structure (SMILES)": "O=[N+]([O-])c1ccc(-n2nc(-c3ccccc3)cc2-c2ccc(F)cc2)c([N+](=O)[O-])c1", "organism": "Japanese encephalitis virus", "assay": "viral replication, refers to: viral RNA", "system": "SA14-14-2, mice, brain", "conditions": "ip, 100 mg/kg/day, 120 h", "inhibition": "33.3%"}
{"Structure (SMILES)": "COC(=O)[C@]1(C)CCC[C@]2(C)[C@H]3C[C@H]4C(C(C)C)=C[C@]3(CC[C@H]21)[C@H]1[C@@H]4[C@@H](OCC#CCN2CCOCC2)CC[C@@H]1O", "organism": "SARS-CoV-2 pseudovirus", "assay": "pseudovirus infection", "system": "BHK-21-hACE2", "conditions": "20.0 µM", "inhibition": "34%"}
{"Structure (SMILES)": "Cc1oc2nc1C(=O)N[C@](C)(C(=O)OC(C)C)c1nc(c(C)o1)C(=O)N[C@](C)(C(=O)OC(C)C)c1nc(c(C)o1)C(=O)N[C@]2(C)C(=O)OC(C)C", "organism": "SARS-CoV-2", "assay": "viral adsorption", "system": "Vero E6, NRC-03-nhCoV", "conditions": "2.5 µM", "inhibition": "0%"}
{"Structure (SMILES)": "CC(C)C1=CC2=CC[C@@H]3[C@](C)(CCC[C@@]3(C)C(=O)OCC#CCN3CCOCC3)[C@H]2CC1", "organism": "SARS-CoV-2 pseudovirus", "assay": "pseudovirus infection", "system": "BHK-21-hACE2", "conditions": "20.0 µM", "inhibition": "28.4%"}
{"Structure (SMILES)": "Cc1oc2nc1C(=O)N[C@](C)(C(=O)O)c1nc(c(C)o1)C(=O)N[C@](C)(C(=O)O)c1nc(c(C)o1)C(=O)N[C@]2(C)C(=O)O", "organism": "SARS-CoV-2", "assay": "viral replication", "system": "Vero E6, NRC-03-nhCoV", "conditions": "10 µM", "inhibition": "36%"}
{"note": "A few entries again:"}
{"Structure (SMILES)": "Cc1ccc(N2CC3CC(C2)N3)cc1C(=O)NC1(c2ccc3c4c(cccc24)C(=O)N3C)CC1", "organism": "SARS-CoV-2", "assay": "viral replication", "system": "Vero C1008, wild type", "conditions": "12.5 µM", "inhibition": "100%"}
{"Structure (SMILES)": "O=S(=O)(O)c1c2ccccc2c(-c2c3nc(c(-c4c5ccccc5c(S(=O)(=O)O)c5ccccc45)c4ccc([nH]4)c(-c4c5ccccc5c(S(=O)(=O)O)c5ccccc45)c4nc(c(-c5c6ccccc6c(S(=O)(=O)O)c6ccccc56)c5ccc2[nH]5)C=C4)C=C3)c2ccccc12", "organism": "Orthopoxvirus vaccinia", "assay": "viral replication", "conditions": "25 µg/mL, 24 h", "inhibition": "81%"}
